# Experimental data from different studies.
# Lines come from different studies, so protocols differ. ± gives the spread as reported.
# dppA: dppA (Mycobacterium tuberculosis, UniProt I6X811)
# 4'-phosphopantetheinyl transferase PptT: 4'-phosphopantetheinyl transferase PptT (Mycobacterium tuberculosis, UniProt O33336)
# Chain of UniProt O33336 (whole entry, looked up): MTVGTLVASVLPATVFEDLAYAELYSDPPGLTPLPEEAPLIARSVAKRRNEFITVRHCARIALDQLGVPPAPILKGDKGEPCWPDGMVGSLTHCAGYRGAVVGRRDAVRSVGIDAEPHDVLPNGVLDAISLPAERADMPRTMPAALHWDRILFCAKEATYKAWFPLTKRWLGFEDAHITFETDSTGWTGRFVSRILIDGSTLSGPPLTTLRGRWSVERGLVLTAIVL
# CNR1: Cannabinoid receptor 1 (CNR1, Homo sapiens, UniProt P21554)
# Chain of UniProt P21554 (whole entry, unmodified, looked up): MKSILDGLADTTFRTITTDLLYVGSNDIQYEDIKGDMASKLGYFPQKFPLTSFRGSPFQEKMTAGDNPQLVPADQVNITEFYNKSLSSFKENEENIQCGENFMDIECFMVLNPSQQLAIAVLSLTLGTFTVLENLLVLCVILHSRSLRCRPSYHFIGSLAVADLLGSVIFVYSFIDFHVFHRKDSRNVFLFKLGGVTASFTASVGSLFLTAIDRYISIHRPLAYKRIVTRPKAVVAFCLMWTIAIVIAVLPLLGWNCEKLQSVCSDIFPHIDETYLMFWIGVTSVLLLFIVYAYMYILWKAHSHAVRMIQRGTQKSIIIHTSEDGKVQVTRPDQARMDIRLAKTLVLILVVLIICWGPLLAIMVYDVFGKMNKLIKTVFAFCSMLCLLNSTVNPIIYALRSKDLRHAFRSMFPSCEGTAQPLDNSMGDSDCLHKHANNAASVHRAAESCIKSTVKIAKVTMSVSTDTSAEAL
# Chain of UniProt P29371 (whole entry, looked up): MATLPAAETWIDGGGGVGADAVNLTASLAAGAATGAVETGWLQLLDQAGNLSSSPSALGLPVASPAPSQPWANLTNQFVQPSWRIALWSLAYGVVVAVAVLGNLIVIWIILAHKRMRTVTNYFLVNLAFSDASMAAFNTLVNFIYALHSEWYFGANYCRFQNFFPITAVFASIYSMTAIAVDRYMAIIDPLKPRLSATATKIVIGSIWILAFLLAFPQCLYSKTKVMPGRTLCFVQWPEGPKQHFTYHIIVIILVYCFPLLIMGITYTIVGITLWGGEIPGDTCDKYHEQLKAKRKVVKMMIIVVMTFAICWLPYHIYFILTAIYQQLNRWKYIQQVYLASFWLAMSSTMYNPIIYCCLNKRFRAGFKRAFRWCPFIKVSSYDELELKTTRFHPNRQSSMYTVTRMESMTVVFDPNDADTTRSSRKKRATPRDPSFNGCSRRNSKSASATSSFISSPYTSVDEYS
# Chain of UniProt P9WG47 (whole entry, looked up): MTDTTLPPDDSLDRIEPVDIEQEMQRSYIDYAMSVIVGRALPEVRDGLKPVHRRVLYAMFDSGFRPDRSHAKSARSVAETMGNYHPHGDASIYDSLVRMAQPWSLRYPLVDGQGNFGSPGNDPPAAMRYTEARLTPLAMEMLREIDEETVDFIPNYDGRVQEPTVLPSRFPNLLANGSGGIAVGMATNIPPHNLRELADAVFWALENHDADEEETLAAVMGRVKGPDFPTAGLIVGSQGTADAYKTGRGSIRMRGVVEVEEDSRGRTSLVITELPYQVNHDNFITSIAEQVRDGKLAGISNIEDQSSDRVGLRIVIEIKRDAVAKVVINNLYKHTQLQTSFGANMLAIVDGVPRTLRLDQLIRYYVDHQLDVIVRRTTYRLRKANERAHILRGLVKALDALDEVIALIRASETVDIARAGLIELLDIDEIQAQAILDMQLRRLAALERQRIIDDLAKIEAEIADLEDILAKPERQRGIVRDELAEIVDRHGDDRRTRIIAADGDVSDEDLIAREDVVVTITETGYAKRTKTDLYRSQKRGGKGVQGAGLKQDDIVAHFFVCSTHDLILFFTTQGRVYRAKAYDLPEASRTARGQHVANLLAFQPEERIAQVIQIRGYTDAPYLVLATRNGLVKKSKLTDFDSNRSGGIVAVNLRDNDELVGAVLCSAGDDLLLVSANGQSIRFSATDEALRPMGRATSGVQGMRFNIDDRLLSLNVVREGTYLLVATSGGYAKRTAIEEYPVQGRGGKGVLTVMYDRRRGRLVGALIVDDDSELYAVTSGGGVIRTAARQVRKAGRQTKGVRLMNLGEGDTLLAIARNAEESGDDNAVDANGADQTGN
# Chain of UniProt P41586 (whole entry, looked up): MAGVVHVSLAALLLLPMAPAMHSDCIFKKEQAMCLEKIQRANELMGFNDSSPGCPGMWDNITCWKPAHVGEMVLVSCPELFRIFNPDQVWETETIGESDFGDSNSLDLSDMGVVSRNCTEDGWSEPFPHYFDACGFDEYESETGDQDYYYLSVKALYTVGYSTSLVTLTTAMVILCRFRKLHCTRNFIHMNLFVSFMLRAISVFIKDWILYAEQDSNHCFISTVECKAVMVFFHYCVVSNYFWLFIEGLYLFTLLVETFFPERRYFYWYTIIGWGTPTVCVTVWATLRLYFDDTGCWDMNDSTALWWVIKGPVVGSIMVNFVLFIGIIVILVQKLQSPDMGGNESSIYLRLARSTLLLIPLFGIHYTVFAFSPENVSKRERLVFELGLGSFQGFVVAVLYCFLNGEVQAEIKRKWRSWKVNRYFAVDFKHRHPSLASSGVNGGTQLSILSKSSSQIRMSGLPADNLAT
# Chain of UniProt Q00526 (whole entry, looked up): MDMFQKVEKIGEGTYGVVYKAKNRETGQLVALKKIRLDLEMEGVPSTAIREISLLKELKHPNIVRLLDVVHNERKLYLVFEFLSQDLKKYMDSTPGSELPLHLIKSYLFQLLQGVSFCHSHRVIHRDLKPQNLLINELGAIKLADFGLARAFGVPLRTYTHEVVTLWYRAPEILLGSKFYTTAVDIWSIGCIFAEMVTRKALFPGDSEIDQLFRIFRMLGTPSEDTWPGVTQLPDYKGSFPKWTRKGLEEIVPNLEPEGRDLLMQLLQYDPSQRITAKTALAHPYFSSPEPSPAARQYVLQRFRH
# Chain of UniProt P16389 (whole entry, looked up): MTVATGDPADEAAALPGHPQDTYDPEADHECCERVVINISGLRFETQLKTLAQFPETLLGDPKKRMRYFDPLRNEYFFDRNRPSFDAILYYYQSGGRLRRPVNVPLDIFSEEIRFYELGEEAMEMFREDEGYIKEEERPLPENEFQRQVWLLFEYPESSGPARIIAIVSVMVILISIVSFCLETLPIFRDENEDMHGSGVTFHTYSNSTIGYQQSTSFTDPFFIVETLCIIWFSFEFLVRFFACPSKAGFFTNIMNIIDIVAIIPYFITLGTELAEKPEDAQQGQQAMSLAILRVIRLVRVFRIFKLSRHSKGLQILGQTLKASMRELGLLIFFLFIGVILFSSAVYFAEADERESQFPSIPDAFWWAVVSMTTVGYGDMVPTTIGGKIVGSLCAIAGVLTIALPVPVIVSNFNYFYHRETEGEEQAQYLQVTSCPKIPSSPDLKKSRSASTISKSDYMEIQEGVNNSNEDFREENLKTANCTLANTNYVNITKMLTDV
# Chain of UniProt P54578 (whole entry, looked up): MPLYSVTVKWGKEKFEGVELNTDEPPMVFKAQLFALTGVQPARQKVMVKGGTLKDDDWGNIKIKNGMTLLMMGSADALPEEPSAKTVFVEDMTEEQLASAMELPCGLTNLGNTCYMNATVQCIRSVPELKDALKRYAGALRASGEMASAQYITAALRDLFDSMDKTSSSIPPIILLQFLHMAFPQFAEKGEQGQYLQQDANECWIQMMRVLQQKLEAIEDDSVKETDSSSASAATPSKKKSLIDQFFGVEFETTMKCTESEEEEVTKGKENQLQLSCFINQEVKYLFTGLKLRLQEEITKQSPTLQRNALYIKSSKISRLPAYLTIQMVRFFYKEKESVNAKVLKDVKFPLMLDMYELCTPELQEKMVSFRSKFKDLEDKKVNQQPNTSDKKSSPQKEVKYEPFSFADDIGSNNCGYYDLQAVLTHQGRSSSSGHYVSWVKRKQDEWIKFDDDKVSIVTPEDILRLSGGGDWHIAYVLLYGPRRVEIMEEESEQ
# Chain of UniProt P08311 (whole entry, looked up): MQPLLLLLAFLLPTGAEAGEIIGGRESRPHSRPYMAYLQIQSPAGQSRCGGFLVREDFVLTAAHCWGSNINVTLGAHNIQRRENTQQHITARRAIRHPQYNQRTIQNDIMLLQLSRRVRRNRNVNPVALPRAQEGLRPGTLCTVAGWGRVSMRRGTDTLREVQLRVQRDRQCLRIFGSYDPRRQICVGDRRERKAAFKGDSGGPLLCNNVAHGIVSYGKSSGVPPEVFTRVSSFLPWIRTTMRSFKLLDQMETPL
Structure (SMILES),target or system,assay,test system,setting,how to read,endpoint,value
CC(C)(C)N1C(=O)NC(=O)C(=Cc2ccccc2Cl)C1=O,"USP14 (Homo sapiens, UniProt P54578)","enzyme activity, inhibitor",,17 µM,,inhibition,30%
CC(C)(C)C(=O)OCOP(=O)(OCOC(=O)C(C)(C)C)C1CCCN(O)C1=O (centres unmarked),UACC-257,,,,,CC50,> 100 µM
CC[C@H](C)[C@@H]1NC(=O)CNC(=O)[C@@H]2Cc3c([nH]c4cc(O)ccc34)[S@+]([O-])C[C@H](NC(=O)CNC1=O)C(=O)N[C@@H](CC(N)=O)C(=O)N1C[C@H](O)C[C@H]1C(=O)N[C@@H]([C@@H](C)[C@@H](O)CO)C(=O)N2,"DNA-directed RNA polymerase II subunit RPB1 (Homo sapiens, UniProt P24928)",,HeLa nuclear extract,"10.00 nM, 60 min",,transcription activity,48 ± 10%
COc1ccccc1-c1n[nH]c2nc(NC3CCN(C(=O)Cc4ccc(F)cc4F)CC3)ncc12,,"bead binding, competition bead pull-down, measured: LINJ.34.0070",Leishmania donovani axenic amastigote extract,10 µM,relative to: vehicle,relative abundance,0.92
CC(C)[C@H](N)C(=O)N[C@H](C(=O)N[C@H](C(=O)N[C@H](C(=O)O)C(C)C)C(C)C)C(C)C,dppA,,,pH 7.4,,kon,5.55 ± 20000 M⁻¹ s⁻¹
C#CCN(Cc1ccc2nc(C)[nH]c(=O)c2c1)c1cc(F)c(C(=O)N[C@H](CCC(=O)O)C(=O)O)c(F)c1,4'-phosphopantetheinyl transferase PptT,"enzyme activity, inhibitor, fluorescence polarisation",,,,Hill slope,1.2
O=C1NC2(CC2)COc2ncc(F)cc2[C@H]2COCCN2c2ccn3ncc1c3n2,,,"Sprague-Dawley rat, male, thymus","oral, 10 mg/kg/day, 4 weeks, end of treatment",,organ-to-body weight ratio,0.162 ± 0.03%
CCCCCn1cc(C(=O)c2cccc3c2CC(C)(C)C3)c2ccccc21,CNR1,"Gαi1 activation, agonist, BRET",,,relative to: reference agonist,Emax,119 ± 8%
C=CCN(Cc1ccc2nc(C)[nH]c(=O)c2c1)c1ccc(C(=O)N[C@H](CCC(=O)O)C(=O)O)s1,4'-phosphopantetheinyl transferase PptT,"enzyme activity, inhibitor, fluorescence polarisation",,,,Hill slope,1.3
CC[C@H](C)[C@H](NC(=O)[C@H](CO)NC(=O)[C@H](CC(N)=O)NC(=O)[C@H](CC(C)C)NC(=O)[C@H](Cc1ccc(O)cc1)NC(=O)[C@H](CCCCN)NC(=O)[C@H](CCCCN)NC(=O)[C@@H](NC(=O)[C@H](C)NC(=O)[C@H](CCSC)NC(=O)[C@H](CCC(N)=O)NC(=O)[C@H](CCCCN)NC(=O)[C@H](CCCNC(=N)N)NC(=O)[C@H](CC(C)C)NC(=O)[C@H](CCCNC(=N)N)NC(=O)[C@@H](NC(=O)[C@H](Cc1ccc(O)cc1)NC(=O)[C@H](CC(N)=O)NC(=O)[C@H](CC(=O)O)NC(=O)[C@@H](NC(=O)[C@H](Cc1ccccc1)NC(=O)[C@@H](NC(=O)[C@H](C)NC(=O)[C@H](CC(=O)O)NC(=O)[C@H](CO)NC(=O)[C@@H](N)Cc1c[nH]cn1)C(C)C)[C@@H](C)O)[C@@H](C)O)C(C)C)C(=O)N[C@@H](CC(C)C)C(=O)N[C@@H](CC(N)=O)C(N)=O,"ADCYAP1R1 (Homo sapiens, UniProt P41586)","cAMP production, agonist",COS-7,"37 °C, AUC over 20 min",,Emax,72 ± 4%
Cc1sc2c(c1C)C(c1ccc(Cl)cc1)=NC(CC(=O)OC(C)(C)C)c1nnc(C)n1-2 (centres unmarked),"TACR3 (Homo sapiens, UniProt P29371)","ligand displacement, radioligand",,1 µM,,remaining binding,123%
C=CCN(Cc1ccc2nc(C)[nH]c(=O)c2c1)c1cnc(C(=O)NC(CCC(=O)O)C(=O)O)s1 (centres unmarked),4'-phosphopantetheinyl transferase PptT,"enzyme activity, inhibitor, fluorescence polarisation",,,,Hill slope,1.2
Nc1ccc(/C=C/C(=O)N2CCc3c(oc4c(-c5ccc(F)cc5)cc(-c5ccc(C(=O)N6CCC(F)(F)CC6)cn5)cc34)C2)cn1,"CDK3 (Homo sapiens, UniProt Q00526)","binding, competition with immobilised ligand",,1 µM,,remaining binding,97%
CC[C@H](C)[C@@H]1NC(=O)[C@@H](NC(=O)CNC(=O)[C@@H](N)CCCCN)CSSC[C@@H]2NC(=O)[C@@H]3CSSC[C@H](NC(=O)[C@H](CCC(N)=O)NC(=O)[C@H](CC(C)C)NC(=O)[C@@H]4CCCN4C(=O)[C@H](CCCNC(=N)N)NC2=O)C(=O)N[C@@H](CCCCN)C(=O)NCC(=O)N2CCC[C@H]2C(=O)N[C@@H](CO)C(=O)N2CCC[C@H]2C(=O)N[C@@H](CCCCN)C(=O)N[C@@H](CCC(N)=O)C(=O)N[C@@H](CCCCN)C(=O)N[C@@H](CCCCN)C(=O)N[C@H](C(=O)N[C@H](C(=O)N[C@@H](CCCCN)C(=O)N[C@H](C(=O)O)C(C)C)[C@@H](C)O)CSSC[C@H](NC(=O)[C@H](Cc2c[nH]c4ccccc24)NC(=O)[C@H](CCCCN)NC(=O)CNC(=O)[C@H](CCC(=O)O)NC(=O)[C@H](CCCCN)NC1=O)C(=O)N1CCC[C@H]1C(=O)N[C@@H](CCCCN)C(=O)N[C@@H]([C@@H](C)O)C(=O)N[C@@H](C)C(=O)N1CCC[C@H]1C(=O)N3,"KCNA2 (Homo sapiens, UniProt P16389)","potassium current, whole-cell patch clamp",,0.3 µM,,inhibition,~50%
O=[N+]([O-])CC(c1ccco1)c1c(-c2ccccc2)[nH]c2ccccc12 (centres unmarked),"CNR1 (Homo sapiens, UniProt P21554, V249A)","Gαi1-γ2 dissociation, BRET",,,,Emax,67 ± 3.85%
CC(C)[C@H](NC(=O)[C@@H](NC(=O)[C@@H](N)CCCCN)C(C)C)C(=O)O,dppA,,,pH 7.4,,kon,2.21 ± 3000 M⁻¹ s⁻¹
COc1ccc2nccc(CC[C@H]3OC[C@H](NC(=O)c4ccc5c(c4)NC(=O)CO5)CO3)c2c1,"DNA gyrase subunit A, with GyrB (Mycobacterium tuberculosis, UniProt P9WG47)",DNA cleavage,,"concentration not given, 10 min, 37 °C, together with: gyrase 100 nM",,maximal single-stranded DNA breaks,~15%
CCN(Cc1ccc2nc(C)[nH]c(=O)c2c1)c1ccc(C(=O)NC(CCC(=O)O)C(=O)O)s1 (centres unmarked),4'-phosphopantetheinyl transferase PptT,"enzyme activity, inhibitor, fluorescence polarisation",,,,Hill slope,1
Cc1ccc2c(C(C[N+](=O)[O-])c3cccs3)c(-c3ccccc3)[nH]c2c1 (centres unmarked),"Cannabinoid receptor 1, with Gz (CNR1, Homo sapiens, UniProt P21554)","Gz dissociation, agonist, BRET",,,,Emax,49.7 ± 0.99%
C#CCN(Cc1ccc2nc(C)[nH]c(=O)c2c1)c1ccc(C(=O)NC(CCC(=O)O)C(=O)O)c(O)c1 (centres unmarked),4'-phosphopantetheinyl transferase PptT,"enzyme activity, inhibitor, fluorescence polarisation",,,,Hill slope,1.2
CC(C)[C@H](N)C(=O)N[C@H](C(=O)N[C@@H](CC(=O)O)C(=O)O)C(C)C,dppA,,,pH 7.4,,kon,1.1 ± 10000 M⁻¹ s⁻¹
Cc1nc2ccc(CN(C)c3ccc(C(=O)NC(CCC(=O)O)C(=O)O)cc3)cc2c(=O)[nH]1 (centres unmarked),4'-phosphopantetheinyl transferase PptT,"enzyme activity, inhibitor, fluorescence polarisation",,,,Hill slope,1.4
C[C@H](N)C(=O)N[C@@H](C)C(=O)N[C@@H](C)C(=O)N[C@@H](C)C(=O)O,dppA,,,pH 7.4,,kon,3.21 ± 2000 M⁻¹ s⁻¹
CC(C)CC(C(=O)N1CC2(CC1C#N)C(=O)Nc1ccccc12)N(C)C(=O)c1cc2c(F)cc(F)c(F)c2[nH]1 (centres unmarked),"Cathepsin G (CTSG, Homo sapiens, UniProt P08311)",,,,,Hill slope,-0.34
COc1ccccc1C(C[N+](=O)[O-])c1c(-c2ccccc2)[nH]c2ccccc12 (centres unmarked),CNR1,"Gαi1-γ2 dissociation, BRET",,,,Emax,100 ± 6.18%
CCCCCn1cc(C(=O)c2ccc3c(c2)CC(C)(C)C3)c2ccccc21,"CNR1 (Homo sapiens, UniProt P21554, F174A)","Gαi1 engagement, agonist, BRET",,,relative to: reference agonist at wild-type CB1,Emax,43.1 ± 4.2%

# For quick reference, copied from above:
Structure (SMILES),target or system,assay,test system,setting,how to read,endpoint,value
O=C1NC2(CC2)COc2ncc(F)cc2[C@H]2COCCN2c2ccn3ncc1c3n2,,,"Sprague-Dawley rat, male, thymus","oral, 10 mg/kg/day, 4 weeks, end of treatment",,organ-to-body weight ratio,0.162 ± 0.03%
CC[C@H](C)[C@@H]1NC(=O)[C@@H](NC(=O)CNC(=O)[C@@H](N)CCCCN)CSSC[C@@H]2NC(=O)[C@@H]3CSSC[C@H](NC(=O)[C@H](CCC(N)=O)NC(=O)[C@H](CC(C)C)NC(=O)[C@@H]4CCCN4C(=O)[C@H](CCCNC(=N)N)NC2=O)C(=O)N[C@@H](CCCCN)C(=O)NCC(=O)N2CCC[C@H]2C(=O)N[C@@H](CO)C(=O)N2CCC[C@H]2C(=O)N[C@@H](CCCCN)C(=O)N[C@@H](CCC(N)=O)C(=O)N[C@@H](CCCCN)C(=O)N[C@@H](CCCCN)C(=O)N[C@H](C(=O)N[C@H](C(=O)N[C@@H](CCCCN)C(=O)N[C@H](C(=O)O)C(C)C)[C@@H](C)O)CSSC[C@H](NC(=O)[C@H](Cc2c[nH]c4ccccc24)NC(=O)[C@H](CCCCN)NC(=O)CNC(=O)[C@H](CCC(=O)O)NC(=O)[C@H](CCCCN)NC1=O)C(=O)N1CCC[C@H]1C(=O)N[C@@H](CCCCN)C(=O)N[C@@H]([C@@H](C)O)C(=O)N[C@@H](C)C(=O)N1CCC[C@H]1C(=O)N3,"KCNA2 (Homo sapiens, UniProt P16389)","potassium current, whole-cell patch clamp",,0.3 µM,,inhibition,~50%
